{"data": "Measured values gathered from unrelated publications", "note": "Every numbered part comes from another study and shows a few of its results, in no order. Changes are numbered by the printed parent chain."}
{"data": "Series 1", "target": "CREB3L4, bZIP domain (human)", "method": "DHFR protein complementation", "matrix": "yeast", "notes": "single substitutions, most at no-binding floor", "baseline": "wild-type JUN-FOS pair", "reading": "higher = stronger binding", "starting sequence": "JUN, bZIP domain (human); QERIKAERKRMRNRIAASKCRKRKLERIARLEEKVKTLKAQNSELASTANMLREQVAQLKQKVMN; partner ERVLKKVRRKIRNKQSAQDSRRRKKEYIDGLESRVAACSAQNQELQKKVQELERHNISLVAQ"}
{"Substitution": "V56E", "binding fitness [natural log]": -1.47}
{"Substitution": "T48N", "binding fitness [natural log]": -1.45}
{"Substitution": "S47F", "binding fitness [natural log]": -1.31}
{"Substitution": "V35Y", "binding fitness [natural log]": -1.53}
{"Substitution": "A40P", "binding fitness [natural log]": -1.51}
{"Substitution": "I28D", "binding fitness [natural log]": -1.51}
{"Substitution": "Q41F", "binding fitness [natural log]": -1.47}
{"Substitution": "L45C", "binding fitness [natural log]": -1.43}
{"Substitution": "E54C", "binding fitness [natural log]": -1.56}
{"Substitution": "A49W", "binding fitness [natural log]": -1.49}
{"Substitution": "L31G", "binding fitness [natural log]": -1.47}
{"Substitution": "I28C", "binding fitness [natural log]": -1.11}
{"Substitution": "E54R", "binding fitness [natural log]": -1.46}
{"Substitution": "T48C", "binding fitness [natural log]": -1.54}
{"Substitution": "L31T", "binding fitness [natural log]": -1.56}
{"Substitution": "N42P", "binding fitness [natural log]": -1.52}
{"data": "Series 2", "target": "Sal-like protein 4, full length isoform A (SALL4, Homo sapiens, UniProt Q9UJQ4, residues 1-1053)", "method": "universal PBM", "molecule type": "double-stranded DNA, one strand shown", "matrix": "in vitro", "tested at": "600 nM", "notes": "8-mer, flanks averaged, mean of replicates", "reading": "higher = stronger binding", "sequence of UniProt Q9UJQ4 (whole entry, looked up)": "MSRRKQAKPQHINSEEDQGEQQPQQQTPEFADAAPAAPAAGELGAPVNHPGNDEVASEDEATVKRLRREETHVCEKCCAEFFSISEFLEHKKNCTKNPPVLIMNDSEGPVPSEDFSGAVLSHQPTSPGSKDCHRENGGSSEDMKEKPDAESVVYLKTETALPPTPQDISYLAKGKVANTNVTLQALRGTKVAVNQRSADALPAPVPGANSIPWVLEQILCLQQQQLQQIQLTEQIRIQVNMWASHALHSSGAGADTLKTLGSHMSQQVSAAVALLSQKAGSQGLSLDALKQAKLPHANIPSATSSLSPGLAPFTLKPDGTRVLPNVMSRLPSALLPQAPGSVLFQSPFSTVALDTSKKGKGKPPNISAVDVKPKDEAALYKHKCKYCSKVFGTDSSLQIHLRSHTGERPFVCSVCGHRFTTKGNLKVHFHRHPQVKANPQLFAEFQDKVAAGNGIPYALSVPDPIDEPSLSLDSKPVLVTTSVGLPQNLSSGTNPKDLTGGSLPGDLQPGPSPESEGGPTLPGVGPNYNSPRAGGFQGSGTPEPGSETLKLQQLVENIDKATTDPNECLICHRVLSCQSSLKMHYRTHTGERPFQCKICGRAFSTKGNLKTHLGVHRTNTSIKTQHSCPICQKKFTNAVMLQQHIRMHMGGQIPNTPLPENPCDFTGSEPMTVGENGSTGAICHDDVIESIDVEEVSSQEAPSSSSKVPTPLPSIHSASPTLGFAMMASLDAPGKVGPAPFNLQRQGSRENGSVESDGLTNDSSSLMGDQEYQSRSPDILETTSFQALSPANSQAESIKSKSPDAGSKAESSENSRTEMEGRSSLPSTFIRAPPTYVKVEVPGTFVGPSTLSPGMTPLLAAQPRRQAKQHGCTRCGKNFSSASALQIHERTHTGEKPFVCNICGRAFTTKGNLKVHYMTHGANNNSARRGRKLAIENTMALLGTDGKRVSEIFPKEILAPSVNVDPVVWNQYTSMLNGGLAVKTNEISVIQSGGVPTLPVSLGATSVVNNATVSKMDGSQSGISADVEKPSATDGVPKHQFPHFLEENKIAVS"}
{"Sequence": "ACCACGAA", "E-score": 0.00584}
{"Sequence": "GCCCCCTA", "E-score": -0.17}
{"Sequence": "CCGCTGCA", "E-score": -0.186}
{"Sequence": "ATGCTCGC", "E-score": -0.124}
{"Sequence": "ACCGGTCC", "E-score": -0.307}
{"Sequence": "AGACGTAA", "E-score": 0.0953}
{"Sequence": "CTAGAGTC", "E-score": -0.132}
{"Sequence": "GAGGGCTA", "E-score": -0.188}
{"Sequence": "ATTGATGC", "E-score": 0.175}
{"Sequence": "CAACTATG", "E-score": 0.136}
{"Sequence": "ATAGGTAA", "E-score": 0.237}
{"Sequence": "ACGTTACC", "E-score": -0.123}
{"Sequence": "AGCTGCCT", "E-score": -0.254}
{"Sequence": "CTTAAACA", "E-score": 0.0669}
{"Sequence": "CGGCTTCC", "E-score": -0.302}
{"Sequence": "CAAGACAG", "E-score": -0.0938}
{"Sequence": "CCATGTCC", "E-score": -0.213}
{"Sequence": "CTAAAGTA", "E-score": 0.0994}
{"Sequence": "CGAATCCG", "E-score": -0.257}
{"Sequence": "CCCCCATC", "E-score": -0.177}
{"Sequence": "GCCTTAAA", "E-score": -0.066}
{"Sequence": "GTCGGAGA", "E-score": -0.161}
{"Sequence": "CGGTAACC", "E-score": -0.286}
{"Sequence": "CGCGTACG", "E-score": 0.0615}
{"Sequence": "ACGCATCG", "E-score": 0.0395}
{"data": "Series 3", "target": "RNA binding protein fox-1 homolog 2, RRM domain, GST-SBP tag (RBFOX2, Homo sapiens, UniProt O43251-10, residues 100-194)", "method": "RNA Bind-n-Seq", "molecule type": "RNA", "matrix": "in vitro", "tested at": "365 nM", "notes": "natural RNA segment, single round, ends assumed", "baseline": "no-protein control", "reading": "higher = stronger binding", "constant ends, left off below": "GGGAGUUCUACAGUCCGACGAUC … UGGAAUUCUCGGGUGCCAA", "Target sequence (chain)": "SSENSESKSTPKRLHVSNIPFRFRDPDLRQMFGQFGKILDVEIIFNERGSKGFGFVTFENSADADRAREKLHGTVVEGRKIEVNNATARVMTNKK"}
{"Sequence": "GGUGAAGCUGGAUGGGGGAUCCAGUGGAGCAGGAGUUGACGGACAGUCCGUUCACAUCGCUGUGUUUCCUUGUUAACAUUUUUCUUUCUGCAGAGAGGAAGAUAUGUUUU", "RBNS enrichment (R)": 0.81}
{"Sequence": "CUCUGCCUCAGCCUUACACCCAAGCAGUAGGUCUGUGCUCUCCCUGUCUCUAGGUCGCUGAGAGAGGUGCUUUUCUUCAUAAAACCUUUGGGGUUUGGAUUUCCCCAGGA", "RBNS enrichment (R)": 0.372}
{"Sequence": "CAGCCAAGGUUUUACAGGCCCUGAUGUCUGUUCUUCUAAAUGGUUUAAGUAAUUGGGACUCUAGCACAUCUUGACCUAGGGUCACUAGAGCUAAGCUUGCUUUGCAGGGC", "RBNS enrichment (R)": 0.279}
{"Sequence": "GAGAAGAGGCGCUUCAAGCUCUUCUAAGCCUUGAUGGUGUCUCCCUUUAGGCAAAGAUCUGAAAUAUGACUACAGUUGUGCUGUUGAUGGGUUCUGCUUUAGAAAUUGUA", "RBNS enrichment (R)": 0.538}
{"Sequence": "CCUGCAGGGCAGGUCCUAGGAUGGGAAAGACAAAUGUACACCUUUCUAUGGCUCUUCCUGAGAGCACACCUCUGGGUCUCAUCUGACAGAGUCUGUGGGCCAAGUGUCUG", "RBNS enrichment (R)": 0.365}
{"Sequence": "GACUGGAGGGCAGAUGGAGAAAGCUGUCCAAGCCUGUCACUAGGCAUGUGGGUUAGACCAGGUUAGACCAAUAAAAAGCUAUGUCUUUACUUUAUGGCAUGUGCUUUUCU", "RBNS enrichment (R)": 2.96}
{"Sequence": "UUUGACCACUGUGAUCCAGAAGAGAGGUGCACUACGUGGGAAGUGCUGAUUCCACAGCAUGCAGCCUGGUAGGGGAAGGAAAAUAAAAGGGUGUGAAGAAGGAAUAGUUU", "RBNS enrichment (R)": 2.7}
{"Sequence": "CACCGUCACACACGCCCCUUUUGUGUUUUGGUUCAAGUUUCUCAGAGCCCCUCAGAGCUUCUACAUCUGUGCAUCAGAAAUCUCACAGCCUUCUCAUGCUGCCGGCUCAU", "RBNS enrichment (R)": 0.625}
{"data": "Series 4", "target": "ABI1, truncated, D143A, DHFR fusion (Arabidopsis thaliana)", "method": "DHFR PCA, deep sequencing", "matrix": "yeast", "notes": "methotrexate growth selection, single substitutions", "together with": "(+)-ABA 1.4 µM", "baseline": "wild-type fitted maximum", "reading": "higher = stronger binding", "starting sequence": "PYL1, truncated, DHFR fusion (Arabidopsis thaliana); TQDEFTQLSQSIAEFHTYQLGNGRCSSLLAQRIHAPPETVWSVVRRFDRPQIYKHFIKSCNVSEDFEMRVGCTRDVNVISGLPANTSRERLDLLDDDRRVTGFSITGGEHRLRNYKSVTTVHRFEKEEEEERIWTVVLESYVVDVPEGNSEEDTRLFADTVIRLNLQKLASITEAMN; partner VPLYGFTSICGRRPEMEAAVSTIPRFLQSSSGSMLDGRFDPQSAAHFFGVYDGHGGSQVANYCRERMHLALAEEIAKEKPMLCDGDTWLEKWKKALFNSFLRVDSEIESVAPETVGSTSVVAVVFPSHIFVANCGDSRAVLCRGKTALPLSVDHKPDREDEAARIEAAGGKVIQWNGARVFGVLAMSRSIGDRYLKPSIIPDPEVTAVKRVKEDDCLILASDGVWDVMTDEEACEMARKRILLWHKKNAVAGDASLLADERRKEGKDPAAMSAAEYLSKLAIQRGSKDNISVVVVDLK"}
{"Substitution": "T6I", "relative binding score": "41.8%"}
{"Substitution": "L28F", "relative binding score": "0.7%"}
{"Substitution": "R99I", "relative binding score": "-6.01%"}
{"Substitution": "S59R", "relative binding score": "18.7%"}
{"Substitution": "E147M", "relative binding score": "29%"}
{"Substitution": "D159Y", "relative binding score": "1.68%"}
{"Substitution": "R111M", "relative binding score": "20.8%"}
{"Substitution": "E64Y", "relative binding score": "19%"}
{"Substitution": "D92P", "relative binding score": "-11.6%"}
{"Substitution": "T101A", "relative binding score": "21.6%"}
{"Substitution": "H34E", "relative binding score": "46.3%"}
{"Substitution": "D92C", "relative binding score": "-13.7%"}
{"Substitution": "L138H", "relative binding score": "13.8%"}
{"Substitution": "V161I", "relative binding score": "90.9%"}
{"Substitution": "E125S", "relative binding score": "66.8%"}
{"Substitution": "A158H", "relative binding score": "5.24%"}
{"Substitution": "E64S", "relative binding score": "57.8%"}
{"Substitution": "T154V", "relative binding score": "55.4%"}
{"data": "Series 5", "target": "CCND3, cyclin fold, Cln2 fusion (human)", "method": "yeast growth competition, sequencing", "matrix": "yeast", "notes": "weak parent motif", "baseline": "not given", "reading": "higher = stronger binding", "starting sequence": "MASTL docking peptide (human); PMIAKNLMCELDE"}
{"Substitution": "PMIAKNSMCELDE [L7S]", "normalised enrichment score": -0.179}
{"Substitution": "PMIAWNLMCELDE [K5W]", "normalised enrichment score": -0.23}
{"Substitution": "PMIAKNLMMELDE [C9M]", "normalised enrichment score": -0.0975}
{"Substitution": "PMIAKNLMCEIDE [L11I]", "normalised enrichment score": 0.346}
{"Substitution": "PMIALNLMCELDE [K5L]", "normalised enrichment score": -0.144}
{"Substitution": "PMIAKNLMDELDE [C9D]", "normalised enrichment score": -0.232}
{"Substitution": "PMIAKNLMEELDE [C9E]", "normalised enrichment score": -0.485}
{"Substitution": "PMIAKNLCCELDE [M8C]", "normalised enrichment score": -0.431}
{"Substitution": "PMIAKNIMCELDE [L7I]", "normalised enrichment score": -0.035}
{"Substitution": "PMIAKNLMCELME [D12M]", "normalised enrichment score": 0.0575}
{"Substitution": "PMIAKNLMCPLDE [E10P]", "normalised enrichment score": 0.0375}
{"Substitution": "PMIAKNMMCELDE [L7M]", "normalised enrichment score": -0.354}
{"Substitution": "PMIAKNVMCELDE [L7V]", "normalised enrichment score": -0.489}
{"Substitution": "PVIAKNLMCELDE [M2V]", "normalised enrichment score": -0.0367}
{"Substitution": "PMIAKLLMCELDE [N6L]", "normalised enrichment score": 0.573}
{"Substitution": "PMIAKNEMCELDE [L7E]", "normalised enrichment score": 0.266}
{"Substitution": "PMIAKNLMCHLDE [E10H]", "normalised enrichment score": 0.0898}
{"Substitution": "PMIAKSLMCELDE [N6S]", "normalised enrichment score": -0.0415}
{"Substitution": "PMIADNLMCELDE [K5D]", "normalised enrichment score": -0.116}
{"Substitution": "PMIAKNLMCETDE [L11T]", "normalised enrichment score": -0.0253}
{"Substitution": "PMLAKNLMCELDE [I3L]", "normalised enrichment score": 0.0671}
{"Substitution": "PMIAKNLMCFLDE [E10F]", "normalised enrichment score": -0.174}
{"data": "Single results of other studies"}
{"Substance": "PhoQ, residues 284 288 289 292 302 303 NLGVHL", "target": "PhoP, residues 12 14 15 18 19 IQFRS (Escherichia coli, UniProt P23836)", "assay": "Sort-seq, item: YFP reporter", "test system": "E. coli", "conditions": "PhoQ-PhoP variant library, together with: 10 µM Mg2+", "how to read": "baseline: high Mg2+ state, higher = stronger signaling", "endpoint": "fold induction", "result": 1.01}
{"note": "A few entries again (series 1):"}
{"Substitution": "L45C", "binding fitness [natural log]": -1.43}
{"Substitution": "V56E", "binding fitness [natural log]": -1.47}
{"Substitution": "N42P", "binding fitness [natural log]": -1.52}
{"Substitution": "T48N", "binding fitness [natural log]": -1.45}
{"Substitution": "I28C", "binding fitness [natural log]": -1.11}
{"Substitution": "E54C", "binding fitness [natural log]": -1.56}
{"Substitution": "S47F", "binding fitness [natural log]": -1.31}
{"Substitution": "L31T", "binding fitness [natural log]": -1.56}
{"Substitution": "A40P", "binding fitness [natural log]": -1.51}
{"Substitution": "T48C", "binding fitness [natural log]": -1.54}
{"Substitution": "Q41F", "binding fitness [natural log]": -1.47}
